Measured values of several laboratories.
Parts stem from different laboratories: compare values within a part only. Changes are numbered by the printed parent chain.

Block 1 — method: RNA Bind-n-Seq; form: RNA; medium: in vitro; concentration: 15 pmol; setting: 4-mer, random 30-nt RNA, single round; with: 3 µM DMDA-PatA, 2 mM AMP-PNP; baseline: input library; direction: higher = stronger binding
Target: Eukaryotic initiation factor 4A-I (EIF4A1, Homo sapiens, UniProt P60842, residues 1-406, full length assumed)
Chain of UniProt P60842 (whole entry, looked up): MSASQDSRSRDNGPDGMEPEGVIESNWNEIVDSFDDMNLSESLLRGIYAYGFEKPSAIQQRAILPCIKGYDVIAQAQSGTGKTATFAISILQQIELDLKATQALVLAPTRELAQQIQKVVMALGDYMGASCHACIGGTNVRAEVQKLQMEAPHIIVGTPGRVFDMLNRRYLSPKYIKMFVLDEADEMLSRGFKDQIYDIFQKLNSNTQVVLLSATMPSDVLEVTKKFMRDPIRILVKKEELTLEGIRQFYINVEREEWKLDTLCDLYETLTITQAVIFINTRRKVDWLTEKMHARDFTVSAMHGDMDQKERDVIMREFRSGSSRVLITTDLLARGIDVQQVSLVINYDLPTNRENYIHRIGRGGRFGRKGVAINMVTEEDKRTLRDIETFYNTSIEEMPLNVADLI
`GUAG` gave a 4-mer enrichment of 1.68 fold.
`AAAC` has a 4-mer enrichment of 0.475 fold.
`CACG` gave a 4-mer enrichment of 0.633 fold.
`AUAA` has a 4-mer enrichment of 0.791 fold.
For `GCUA`, the 4-mer enrichment was 1.42 fold.
`GCUU` has a 4-mer enrichment of 0.862 fold.
The 4-mer enrichment of `AAUA` is reported as 0.909 fold.
`CUAG` has a 4-mer enrichment of 1.47 fold.

Block 2 — method: protein binding microarray; form: double-stranded DNA, one strand shown; medium: in vitro; concentration: not given; baseline: not given; direction: higher = stronger binding
Target: Histone acetyltransferase KAT6A, winged helix 1, GST fusion (KAT6A, Homo sapiens, UniProt Q92794, residues 1-85)
Setting: 8-mer, flanks averaged, mean of 2 arrays, mostly near background
Target sequence (chain): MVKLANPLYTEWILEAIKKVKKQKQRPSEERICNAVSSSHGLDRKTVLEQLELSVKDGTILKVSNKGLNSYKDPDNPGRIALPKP
`GACCGCCC` gave an E-score of 0.32.
`AGATACTC` gave an E-score of -0.0396.
The E-score of `CTTCCAGA` is reported as -0.212.
With `TAGTCAAA` the E-score was -0.191.
For `ATCAATTG`, the E-score was -0.0954.
`CCCTCTTA` gave an E-score of -0.0502.
`CTCTCCTC` gave an E-score of -0.124.
For `AGGTAATG`, the E-score was 0.00743.

Block 3 — method: protein-binding microarray; form: double-stranded DNA, one strand shown; medium: in vitro; concentration: 250 nM; setting: 60-bp whole probe; with: salmon DNA 0.4 mg/ml; baseline: random background probes; direction: higher = stronger binding; all sequences stand within: GCCTAGCAC … GTCTTGATTCGCTTGACGCTGCTG
Target: Interferon regulatory factor 7, full length, phosphomimetic (IRF7, Homo sapiens, UniProt Q92985, residues 1-503, S101K/S471D/S472D/S475D/S476D/S477D/S483D/S484D/S487D)
Chain of UniProt Q92985 (whole entry, unmodified, looked up): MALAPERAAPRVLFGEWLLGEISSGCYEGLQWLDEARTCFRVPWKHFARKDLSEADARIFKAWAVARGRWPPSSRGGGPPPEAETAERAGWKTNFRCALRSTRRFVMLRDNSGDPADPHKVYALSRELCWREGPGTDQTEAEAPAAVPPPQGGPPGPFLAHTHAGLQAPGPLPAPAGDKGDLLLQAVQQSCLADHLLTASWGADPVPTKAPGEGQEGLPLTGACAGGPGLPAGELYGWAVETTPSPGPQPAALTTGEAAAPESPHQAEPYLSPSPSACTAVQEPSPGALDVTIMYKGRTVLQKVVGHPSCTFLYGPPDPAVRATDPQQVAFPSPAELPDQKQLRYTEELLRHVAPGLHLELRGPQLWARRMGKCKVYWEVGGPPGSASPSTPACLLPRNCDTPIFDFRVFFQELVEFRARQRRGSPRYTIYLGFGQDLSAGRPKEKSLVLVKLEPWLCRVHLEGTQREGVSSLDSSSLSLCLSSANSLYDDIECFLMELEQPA
`TTAGGTTGCGGACTGGGTTAGTGCTAG` has a log fluorescence of -0.243 z-score.
For `TTAAGTCTCGGTTTCGGTTAGTGCTAG`, the log fluorescence was 11.9 z-score.
With `GACGATTTCGGATTTCGAGACGTGCTA` the log fluorescence was 1.79 z-score.
The log fluorescence of `TTAGGCTTCGACTATCGGTTAGTGCTA` is reported as -0.381 z-score.
With `TTATGTATCGGTATCGGTTAGTGCTAG` the log fluorescence was 1.43 z-score.
`GTGACTCTGAACCTTCAGCTCGTGCTA` has a log fluorescence of 0.243 z-score.
For `GGTGCCTCGGGTTCAGGGAGGTGCTAG`, the log fluorescence was 0.0726 z-score.
For `GTCACATTGCACAATCTTAATGTGCTA`, the log fluorescence was 0.504 z-score.

Other studies, line by line — starting sequence: viral docking peptide; KGVKRKLFAEDSS
`E10T`: “normalised enrichment score” 6.78 (CCNE1, cyclin fold, Cln2 fusion (human); yeast growth competition, sequencing; yeast; strong parent motif; baseline: not given, higher = stronger binding).

Some of these lines once more (block 1):
`GCUU` has a 4-mer enrichment of 0.862 fold.
The 4-mer enrichment of `AAUA` is reported as 0.909 fold.
`CUAG` has a 4-mer enrichment of 1.47 fold.
